Measured values gathered from unrelated publications.
Every numbered part comes from another study and shows a few of its results, in no order.

Sample 1
Target: Replicase polyprotein 1ab, polymerase (rep, Severe acute respiratory syndrome coronavirus 2, UniProt P0DTD1)
Observed: enzyme activity
Action: inhibitor
Tested at: 20 µM
SMILES | inhibition [%]
Cc1cc(C)c2nc(-c3ccccn3)cc(C(=O)Nc3ccc(S(=O)(=O)Nc4onc(C)c4C)cc3)c2c1 | 55.7
Cc1c(Cc2ccc3ccccc3n2)c2cc(F)ccc2n1CC(=O)O | 1.19
CN1CCN(C(c2ccccc2)c2ccccc2)CC1 | 1.98
CCOC(=O)c1ccc(O)cc1 | -9.97
COC(=O)/C=C/c1cccc(N(Cc2ccc(-c3ccc(N(C)C)cc3)cc2)C(=O)C2CCCCC2)c1 | 0.89
COc1ccccc1N1CCN(CCN2C(=O)CC3(CCCC3)CC2=O)CC1 | -2.91
COc1ccc2nc3cc(Cl)ccc3c(Nc3cc(CN4CCCC4)c(O)c(CN4CCCC4)c3)c2n1 | 95.4
CSc1cc2c(cc1C(F)(F)F)N(C(=O)Nc1cccnc1)CC2 | -4.4
CCOc1ccc(/C=C2\NCCc3cc(OCC)c(OCC)cc32)cc1OCC | -2.73
O=C(COc1ccc(Cl)cc1)N1CCN(Cc2ccc3c(c2)OCO3)CC1 | 0.42
CCc1cc2c(s1)-n1c(C)nnc1CN=C2c1ccccc1Cl | -3.27
CC1(C)CCC(C)(C)c2cc(Cn3cccn3)c(/C=C/c3ccc(C(=O)O)cc3)cc21 | 1.68
CCCC(CCC)C(=O)NCC(N)=O | 3.68
N#Cc1ccc(COC[C@H]2O[C@@H](n3c(NCc4ccc(Cl)c(Cl)c4)nc4c(N)ncnc43)[C@H](O)[C@@H]2O)cc1 | 0.24
O=c1cc(N2CCNCC2)oc2c(-c3ccccc3)cccc12 | 4.46
COC[C@H](C)Oc1cc(O[C@@H](C)Cc2ccccc2)cc(C(=O)Nc2ccc(C(=O)O)cn2)c1 | 0.98
COc1ccc(CN2CCN(C(c3ccc(F)cc3)c3ccc(F)cc3)CC2)c(OC)c1OC | -1.49
CCCNC(=O)N1N=C(c2ccc(N)cc2)c2cc3c(cc2C1C)OCO3 (centres unmarked) | -1.52
CC(C)Oc1ccc(-c2nc(-c3cccc4c3CC[C@@H]4NCCO)no2)cc1C#N | -10.3
C[C@](O)(COc1ccc(C#N)cc1)C(=O)Nc1ccc(C#N)c(C(F)(F)F)c1 | -4.84
CCCCC1=NC2(CCCC2)C(=O)N1Cc1ccc(-c2ccccc2-c2nnn[nH]2)cc1 | -4.21
Cc1nc2c(c(=O)[nH]1)CSCC2 | 2.61
NS(=O)(=O)c1cc2c(cc1C(F)(F)F)NCNS2(=O)=O | 22.4
Cc1nc(N(C)C(=O)Cc2ccc(-c3ccccn3)cc2)sc1S(N)(=O)=O | 2.09
CCOc1ccccc1C(=O)O | -0.8

Sample 2
Cell line: HEK-293T-ACE2
Tested at: concentration not given
Relative to: vehicle
Compound | cell number [%]
C=C1c2c(Cl)ccc(O)c2C(=O)C2=C(O)[C@]3(O)C(=O)C(C(N)=O)=C(O)[C@@H](N(C)C)[C@@H]3[C@@H](O)[C@H]12.O=C(O)c1cc(S(=O)(=O)O)ccc1O | 99.7
Cc1nc2n(c(=O)c1CCN1CCC(c3noc4cc(F)ccc34)CC1)CCCC2 | 99.5
Cc1[nH]c2ccccc2c1CCNCc1ccc(/C=C/C(=O)NO)cc1 | 36.5

Sample 3
Target: Replicase polyprotein 1ab, main protease (rep, Severe acute respiratory syndrome coronavirus 2, UniProt P0DTD1)
Observed: enzyme activity
Action: inhibitor
Tested at: 20 µM
Notes: hit confirmation, no DTT
SMILES | inhibition
C=C1C(=O)[C@]23[C@H](O)[C@H]1CC[C@@H]2[C@@]12CO[C@]3(O)C[C@@H]1C(C)(C)CC[C@@H]2O | 95.1%
O=C1C(Cl)=C(Cl)C(=O)C(Cl)=C1Cl | 110%
O=C1C(=Cc2cccnc2)C(=O)c2ccccc21 | 75.7%
CCc1ccc(/C=C/C(=O)Nc2ccc(C(C)=O)cc2)o1 | 64.7%

Sample 4
Target: RING finger protein unkempt homolog, zinc fingers 1-6, SBP tag (UNK, Homo sapiens, UniProt Q9C0B0, residues 30-357)
Sequence of UniProt Q9C0B0 (30-357, looked up): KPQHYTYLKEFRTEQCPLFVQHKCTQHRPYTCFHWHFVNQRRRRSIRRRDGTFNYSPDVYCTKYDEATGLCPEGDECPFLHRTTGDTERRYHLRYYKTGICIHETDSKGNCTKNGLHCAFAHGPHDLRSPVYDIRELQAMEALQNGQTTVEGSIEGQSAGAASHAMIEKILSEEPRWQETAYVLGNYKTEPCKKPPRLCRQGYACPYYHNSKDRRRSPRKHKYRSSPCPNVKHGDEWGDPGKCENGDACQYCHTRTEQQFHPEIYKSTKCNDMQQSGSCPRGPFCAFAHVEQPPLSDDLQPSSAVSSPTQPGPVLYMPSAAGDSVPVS
Method: RNA Bind-n-Seq
Molecule type: RNA
Matrix: in vitro
Tested at: 100 nM
Notes: RNA with constant flanks, vertebrate orthologous sites, ends assumed
Relative to: input RNA pool
Direction: higher = stronger binding
Oligonucleotide | bound/input enrichment [ratio]
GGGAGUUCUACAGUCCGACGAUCUUUAAAGUCAUUUUUUCAUGUUUCCUGUAAAUAAUGGAUAAUCAUUUUUAUUUUAUUUUUAAGUGCUGUUUUAACAAUGUGGAUAGAUCAUAAAUGUACUUGCUGAAUUCAUUCAUUUUUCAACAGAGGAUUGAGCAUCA | 0.65
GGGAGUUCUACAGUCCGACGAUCUGUACUUGGAAAAAAAUCAUCUUUAGUUUUAAACUAGUCACGGUGAUACCUAUUCUGUGCUAGUGGAAUCAUUUACUCUUACCUUUUAAACUAUCUCCUCUGUCUGAUACCUGAAACCAGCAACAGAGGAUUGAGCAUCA | 0.851
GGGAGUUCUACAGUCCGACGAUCAAAUUCCCGCAUUGUCACUGAGAACCACCAAAUCUGACUUUUACAUUUGGUCUCAGAAUUUAGGUUCCUGCCCUGUUGGUUUUUUUUUUUUUUUUUUAAACAGUUUUCAAAAGUUCUUAACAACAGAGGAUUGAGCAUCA | 1.43
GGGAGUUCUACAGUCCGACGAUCUUUCUUCUCUUUUUCUUUGUUUCCCUCUUUUCUUUUUUUUUCCUUUUCUUUCUUUUUUUGUAGUUGUUGUUACCCACGCCAUUUUACGUCUCCUUCACUGAAGGGCUAGAGUUUUAACUUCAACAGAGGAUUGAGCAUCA | 3.36
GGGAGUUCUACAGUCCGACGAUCACCUUUUGUAGGCCAAAAACCUUCCUUCCACUGCUUCUGCCAACUGGAAGCACAGAAAACUAGAAUUUCAUUUAUUUUGUUUAAAAAAAAAAAAAUUGAUUUCUUGUAACAUCCAAUAGGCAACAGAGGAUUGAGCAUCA | 0.435
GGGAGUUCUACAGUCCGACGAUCUUUUAAAGUCAUUUUUCACAUUUCCUGUAAAUAGUGGAUAAUCAUUUUUAUUUUCUUUUUAAGUGCUGUUUUAACAUGUGGAUAGAUCAUAAAUGUACUUGCUGAAUUCAUUCUUUUUUUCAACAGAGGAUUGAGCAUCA | 0.374
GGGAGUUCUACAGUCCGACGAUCGCCUCUGAACCCCAUAUCUUCUGUUUCAUAAUGCAGAAGUGUUCUUUUUAAUUAUAUUAGUGGACUUGUUUUAAUUUUAGAGAGACUUCCAGUACAGAUACUGUGAGCUGACAUGGAAAACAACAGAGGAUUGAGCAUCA | 2.47
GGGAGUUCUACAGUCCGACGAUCAAAUUUAUUUCAUGCCCUGGACCCCCUACCGUACUGAUACUUUAAUAGAAUAUGCUUCUUUAGAAGAUUUCCAAAAUAGUCGCCAAACAACAACAUACAAACUUCCAAAUCGAGUAGAUGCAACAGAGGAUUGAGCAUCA | 2.3

Sample 5
Target: Histone acetyltransferase KAT6A, winged helix 2, GST fusion (KAT6A, Homo sapiens, UniProt Q92794, residues 85-181)
Method: protein binding microarray
Molecule type: double-stranded DNA, one strand shown
Matrix: in vitro
Tested at: not given
Notes: 8-mer, flanks averaged, mean of 2 arrays, mostly near background
Relative to: not given
Direction: higher = stronger binding
Target sequence (chain): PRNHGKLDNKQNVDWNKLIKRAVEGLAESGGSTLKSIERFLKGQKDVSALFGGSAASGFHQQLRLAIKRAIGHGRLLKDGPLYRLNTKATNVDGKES
Oligonucleotide | E-score
TCCCCCAA | -0.074
AATATAAC | 0.03
AGTATGAA | -0.0182
GCAGTGGC | 0.135
ATCAGGAA | 0.0132
CACTATCC | -0.0527
GAAATTCA | 0.00159
AACACATC | -0.15

Sample 6
Target: Ras GTPase-activating protein-binding protein 1, full length (G3BP1, Homo sapiens, UniProt Q13283)
Sequence of UniProt Q13283 (whole entry, looked up): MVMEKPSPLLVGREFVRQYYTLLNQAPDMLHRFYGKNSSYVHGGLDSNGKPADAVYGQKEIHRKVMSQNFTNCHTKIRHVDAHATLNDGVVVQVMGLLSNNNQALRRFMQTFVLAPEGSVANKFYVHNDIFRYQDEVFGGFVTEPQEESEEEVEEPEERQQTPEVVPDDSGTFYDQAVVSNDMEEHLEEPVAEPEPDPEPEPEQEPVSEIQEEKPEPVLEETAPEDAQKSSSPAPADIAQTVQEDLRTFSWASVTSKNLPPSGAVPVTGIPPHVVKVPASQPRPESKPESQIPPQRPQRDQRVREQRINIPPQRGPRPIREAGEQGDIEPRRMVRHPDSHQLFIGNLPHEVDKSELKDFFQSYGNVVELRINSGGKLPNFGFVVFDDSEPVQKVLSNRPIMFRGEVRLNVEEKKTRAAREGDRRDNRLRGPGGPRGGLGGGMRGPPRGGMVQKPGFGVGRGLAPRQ
Method: RNA Bind-n-Seq
Molecule type: RNA
Matrix: in vitro
Tested at: 200 nM
Notes: whole 134-nt RNA, ends assumed
Added: 150 mM KCl
Relative to: input library
Direction: higher = stronger binding
Oligonucleotide | log2 enrichment
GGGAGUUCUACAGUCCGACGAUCUUAAGAAUAUUUAGAUAUUUGUAAAAGAAUUUGAAUGAUUUAUUUAAUAUAACGUUUAUUUUAUUAGCUCUAUUCCAAUUGAUUACAACCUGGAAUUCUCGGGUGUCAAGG | -1.78
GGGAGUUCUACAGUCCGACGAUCCCUCAAGUCCUGUGCUACACAUCGUAUGUACCGAAUCGGAGGGAGGGGAGGGAAAGUAUUAUGUUACGCCGUUCGGAUCUGCACUUCCAGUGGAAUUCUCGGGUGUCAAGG | 1.08
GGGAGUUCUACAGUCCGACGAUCAAGUCCUGUGCUACACAUCGUAUGUACCGAAUCGGGGAAAGGGAAAGGGGAAAGGGAAAGUAUUAUGUUACGCCGUUCGGAUCUGCACUUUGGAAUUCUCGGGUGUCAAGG | 0.277
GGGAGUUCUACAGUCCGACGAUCAGUCCUGUGCUACACAUCGUAUGUACCGAAUCGGAAAGGUUUUUUUGGUUUUUUUGGAAAGUAUUAUGUUACGCCGUUCGGAUCUGCACUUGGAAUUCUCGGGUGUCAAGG | -1.68
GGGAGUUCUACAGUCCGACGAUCCCUCAAGUCCUGUGCUACACAUCGUAUGUACCGAAUCGGGGUGGGGUGGUGGAAAGUAUUAUGUUACGCCGUUCGGAUCUGCACUUCCAGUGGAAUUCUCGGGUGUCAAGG | 0.566
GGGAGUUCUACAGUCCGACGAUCCACAGACAACACGCACCCACACAGACAAAAAGGGAAGGGGUUGGGAUGGGGACAGGGUGCACAGCAGGGCGGGGUAGGACCCCAGCCCCUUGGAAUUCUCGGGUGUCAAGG | 1.84
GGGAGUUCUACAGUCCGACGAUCAGUCCUGUGCUACACAUCGUAUGUACCGAAUCGGGAGGGAAAAAAAGGGAAAAAGGGAAAGUAUUAUGUUACGCCGUUCGGAUCUGCACUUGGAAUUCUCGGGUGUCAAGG | -0.052
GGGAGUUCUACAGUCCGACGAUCUCCUGUGCUACACAUCGUAUGUACCGAAUCGGGGUUUUUUGGUUUUUUGGUUUUUUGGGAAAGUAUUAUGUUACGCCGUUCGGAUCUGCAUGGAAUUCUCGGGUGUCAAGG | -0.821

For quick reference, copied from above (sample 5):
Oligonucleotide | E-score
AATATAAC | 0.03
GCAGTGGC | 0.135
ATCAGGAA | 0.0132
CACTATCC | -0.0527
GAAATTCA | 0.00159
AACACATC | -0.15
